Earlier results, collected from citations in different studies.
Protocols differ between the studies behind these lines. Numbers after ± are the reported error.

SMILES | test | test system | conditions | scale | endpoint | value
Cc1ccccc1-c1cc(N2CCNCC2)ncc1N(C)C(=O)C(C)(C)c1cc(C(F)(F)F)cc(C(F)(F)F)c1 |  | healthy volunteers, plasma | oral, dose not given, netupitant-palonosetron, fed |  | Tmax | 15.3 h
CCCCc1oc2ccccc2c1C(=O)c1cc(I)c(OCCNCC)c(I)c1 |  | human, plasma | dose not given |  | plasma concentration | 1000 to 5000 nM
NS(=O)(=O)c1ccc(N2N=C(C(F)(F)F)C(O)C2c2ccc(F)cc2F)cc1 (stereo not shown) |  | liver microsomes | concentration not given |  | share of drug-related material | ~7%
O=C1C2=C(CCN(Cc3ccccc3)C2)N2CCN=C2N1Cc1ccc(C(F)(F)F)cc1 |  | rats | oral, 50 mg/kg |  | AUC(0-t) | 8010 ng·h/mL
Cc1cc(NC2Cc3cc(F)c(F)cc3C2)n2nc(C(C)(F)F)nc2n1 |  | mouse, plasma | oral, 20 mg/kg |  | AUC(0-inf) | 170 µM·h
CCN(CC)c1ccc(-c2cc3c(s2)c(C(=O)OC)cc(=O)n3C)cc1 |  | dichloromethane | 10 µM |  | absorption maximum | 442 nm
Cc1ccccc1-c1cc(N2CC[N+](C)([O-])CC2)ncc1N(C)C(=O)C(C)(C)c1cc(C(F)(F)F)cc(C(F)(F)F)c1 |  | healthy volunteers, plasma | oral, 450 mg, single dose, netupitant alone |  | half-life | 67.2 h
Nc1ncnc2c1ncn2[C@H]1C[C@H](O)[C@@H](COP(=O)(O)OP(=O)(O)[C@@H](F)P(=O)(O)O)O1 | item: bisphosphonate leaving group | aqueous solution | measured experimentally |  | pKa4 | 9
CC(=O)Nc1cc(Nc2cc(NC3CC3)n3ncc(C#N)c3n2)ccc1C |  | rat, plasma | oral, 10 mg/kg |  | Cmax | 300 nM
C=C[C@@H]1C[C@]1(NC(=O)[C@@H]1C[C@@H](Oc2ncc(OC)c3c(Cl)cccc23)CN1C(=O)[C@@H](NC(=O)OC(C)(C)C)C(C)(C)C)C(=O)NS(=O)(=O)C1CC1 |  | isolated perfused rabbit heart | 10 µM, time not given |  | sinus node recovery time change | 104%
CC(C)=CCC[C@](C)(O)[C@H]1CC[C@]2(C)[C@@H]1[C@H](O)C[C@@H]1[C@@]3(C)CC[C@H](O)C(C)(C)[C@@H]3CC[C@]12C |  | water |  |  | aqueous solubility | < 0.05 µg/mL
Cc1[nH]nc2c1N=C(c1ccccc1Cl)c1cnc(N3CCOCC3)cc1N2 |  | healthy adult volunteers | 10 mg |  | tolerability | not toxic
C=C[C@@H]1C[C@]1(NC(=O)[C@@H]1C[C@@H](Oc2cc(-c3ccccc3)nc3cc(OC)ccc23)CN1C(=O)[C@@H](NC(=O)OC(C)(C)C)C(C)(C)C)C(=O)NS(=O)(=O)C1CC1 |  | dog | oral, 3 mg/kg |  | oral bioavailability | 20%
O=P(O)(O)CN1CCN(CP(=O)(O)O)CCN(CP(=O)(O)O)CCN(CP(=O)(O)O)CC1.[177Lu+3] |  | bone | concentration not given |  | tissue uptake | 4.23 %ID/g
O=C([O-])CN1CCN(CC(=O)[O-])CCN(CC(=O)c2ccccc2)CCN(CC(=O)[O-])CC1.[Gd+3] |  |  | concentration not given, SAP isomer |  | activation enthalpy of water exchange | 12 kcal/mol
N=S(=O)(c1ccccc1)N1CCCCC1 (stereo not shown) |  | HCl buffer | 24 h, pH 1 |  | recovery | 100%

SMILES | test | test system | conditions | scale | endpoint | value
CCn1nc(Cl)c2c1-c1cnc(N)c(c1)O[C@H](C)c1cc(F)ccc1-c1nn(C)cc1C2 |  | human, plasma | oral, 150 mg once daily |  | Cmax, free, steady state | 40 nM
COCCOCCOCCOCCC(=O)NCc1cc(CNC(=O)CCOCCOCCOCCOC)cc(-c2cc3cc4nc(c(OC)c5[nH]c(cc6nc(cc2[nH]3)CC6(C)C)cc5-c2cc(CNC(=O)CCOCCOCCOCCOC)cc(CNC(=O)CCOCCOCCOCCOC)c2)CC4(C)C)c1 |  | PBS | room temperature |  | fluorescence quantum yield | 0.16
C=C[C@@H]1C[C@]1(NC(=O)[C@@H]1C[C@@H](Oc2nccc3c(OC)cccc23)CN1C(=O)[C@@H](NC(=O)OC(C)(C)C)C(C)(C)C)C(=O)NS(=O)(=O)C1CC1 |  | rat | dose not given |  | AUC | 2.7 µM·h
O=C([O-])CN1CCN(CC(=O)[O-])CCN(CC(=O)NCC2CCC(C(=O)NC(Cc3ccc4ccccc4c3)C(=O)NCCCCC(NC(=O)NC(CCC(=O)O)C(=O)O)C(=O)O)CC2)CCN(CC(=O)[O-])CC1.[68Ga+3] (stereo not shown) |  | human, kidneys | literature data |  | absorbed dose | 0.206 mSv/MBq
C=C[C@@H]1C[C@]1(NC(=O)[C@@H]1C[C@@H](Oc2ncc(OC)c3ccccc23)CN1C(=O)[C@@H](NC(=O)OC(C)(C)C)C(C)(C)C)C(=O)NS(=O)(=O)C1CC1 |  | isolated perfused rabbit heart | 10 µM, time not given |  | sinus node recovery time change | 18%
Cc1ccccc1-c1cc(N2CC[N+](C)([O-])CC2)ncc1NC(=O)C(C)(C)c1cc(C(F)(F)F)cc(C(F)(F)F)c1 |  | systemic circulation |  | baseline: metabolite over netupitant | exposure ratio | 3%
CC(C)Sc1ccc(SC(C)C)c(O)c(=O)c1O |  |  |  |  | pKa1 | 4.8
CCCCCCc1ccc(Oc2ccccc2C#N)c(O)c1 |  | mouse | 40 mg/kg |  | half-life | 6.2 h
CNc1c(C)n(C)n(-c2ccccc2)c1=O |  | rabbit liver microsomes | added: NADPH |  | demethylation share | < 50%
CCN(CC)C(=S)c1ccc(-c2c3ccc(=[N+](C)C)cc-3sc3cc4c(cc23)C(C)(C)CCN4C)s1 |  | methanol |  |  | molar extinction coefficient | 63000 M⁻¹ cm⁻¹
CCCC(CCC)C(=O)[O][Pt]([Cl])([Cl])[O]C(=O)C(CCC)CCC.N.N | shake flask | octanol/water |  |  | logP | 0.25 ± 0.03
COc1cc2c(O[C@@H]3OC[C@@H](OC)[C@H](OC)[C@H]3O)c3c(c(-c4ccc5c(c4)OCO5)c2cc1OC)C(=O)OC3 |  | healthy mice | dose not given |  | body weight and lymphocyte count | no effect
CN1CCN(c2cc(-c3ccccc3CO)c(N(C)C(=O)C(C)(C)c3cc(C(F)(F)F)cc(C(F)(F)F)c3)cn2)CC1 |  | healthy volunteers, plasma | oral, 450 mg, single dose, added: palonosetron 0.75 mg |  | Tmax | 11.4 h
O=C(O)CCc1ccc(O)c(CN(CCN(CC(=O)O)Cc2cc(CCC(=O)NCCCCCC(=O)NCCCC[C@H](NC(=O)N[C@@H](CCC(=O)O)C(=O)O)C(=O)O)ccc2O)CC(=O)O)c1 |  |  |  |  | logP | -2.91 ± 0.06
COc1cc(F)c(C(C)C)cc1C1=C(CN2C(=O)O[C@H](c3cc(C(F)(F)F)cc(C(F)(F)F)c3)[C@@H]2C)CC(C)(C)CC1 |  | monkey | intravenous |  | Vd | 0.99 to 1.11 L/kg
